Measured values collected from several papers.
A part holds a random share of what one study measured.

Sample 1
Target: POU, POU domain (Salpingoeca helianthica)
Method: Spec-seq
Molecule type: double-stranded DNA, one strand shown
Sample: in vitro
Concentration: not given
Notes: whole probe, mean of replicates
Baseline: not given
Direction: lower = stronger binding
Endpoint: relative binding energy
All sequences stand within: GAGTCGTCTCGTCAGCAC … CCGTAGAGCACTCAGGTC
Residues (chain): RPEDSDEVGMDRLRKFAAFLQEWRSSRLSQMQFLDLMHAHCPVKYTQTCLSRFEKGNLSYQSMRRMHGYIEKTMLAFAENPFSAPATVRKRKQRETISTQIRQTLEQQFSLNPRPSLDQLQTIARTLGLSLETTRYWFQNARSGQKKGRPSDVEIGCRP
ATACGGAT: 1.17 ln ratio
ATGCCGAG: 2.23 ln ratio
ATCAACAT: 1.16 ln ratio
ACCTTAAT: 0.527 ln ratio
GTGCTAAT: 0.68 ln ratio
AAAGTAAT: 0.738 ln ratio
AACGTAAT: 0.584 ln ratio
ATGCCGAA: 1.11 ln ratio
ATGGAGAT: 1.25 ln ratio
ATGCCGCT: 1.08 ln ratio
ATGCTGGC: 1.38 ln ratio
ATGATGAT: 1.02 ln ratio
ATGCGGAC: 1.37 ln ratio
ATGCTTGC: 1.18 ln ratio
ATGATAAT: 0.325 ln ratio
ATGCACTG: 1.42 ln ratio
ATGAGCAT: 1.15 ln ratio
ATGCGAGA: 1.27 ln ratio
ATGCCAAA: 1.29 ln ratio
GCGTTAAT: -0.151 ln ratio
TTTCTAAT: 0.523 ln ratio
ATGCATGG: 1.37 ln ratio
ATGCGATA: 0.927 ln ratio
ATGCCATG: 1.58 ln ratio
CCTTTAAT: 0.0458 ln ratio

Sample 2
Target: RNA binding protein fox-1 homolog 2, RRM domain, GST-SBP tag (RBFOX2, Homo sapiens, UniProt O43251-10, residues 100-194)
Method: RNA Bind-n-Seq
Molecule type: RNA
Sample: in vitro
Concentration: 365 nM
Notes: natural RNA segment, single round, ends assumed
Baseline: no-protein control
Direction: higher = stronger binding
Endpoint: RBNS enrichment (R)
All sequences stand within: GGGAGUUCUACAGUCCGACGAUC … UGGAAUUCUCGGGUGCCAA
Construct (chain): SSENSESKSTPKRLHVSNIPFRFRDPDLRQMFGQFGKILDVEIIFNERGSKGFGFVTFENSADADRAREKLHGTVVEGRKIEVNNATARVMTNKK
CAGAUGGACGUGGUGCACGCCAACGCAGUGUCCCCUCCUAUGGUUAAUAUACUUUCGUUCCAUGGUGUGCAGGUUUUCUUUUACUUCAGUGUUAUGAUCUCUUCCAGCUG: 0.255
CUGCAGCAGUUCCCUGUAUGGGUGGAUGUCCUCAGGGGCCAAGAAGAGAAGAAUGGGGACAACAGAAACCUGCUUUGUAGGGGAUUAUGUAGACUAAAAGCCUAGAAGUU: 0.731
AAUCUGAUUCCAGUUAAGCUAUAAACUUGUGGGAUUUUCUUGUAGCCCUAUAGUUCUGUGACUUCAUUUGCUAUACGCUUUAAAUGUGUUGAGCAGCCUAUGAACCUAAA: 0.293
AUAAUUUAAUUUAGUGGAAAAAGAAGACAAUGCUUUCCAUAUUGUGAUAAGGUAACAUGGGGUUUUUCUGGGCCAGCCUUUAGAACACUGUUAGGGUACAUACGCUACCU: 0.83
CUACAUCAGCUGACCUGAAACUCAGGGGACUCUGGAACACCAUGGACCCUGGGGGCUGUGCCCCCAUCUCCUCCCCACCCCAGGUCUAGUGGCCCCACCCUCCAUUCCGG: 0.299
UUCAUCCUUCCCUAAUGCCGUCUUGGGGCAGGGAUGGAAUAUGACCAGAAAGUUGUGGAUUAAAGGCCUGUGAAUACUGCUGAGCUUGUUGUUUGUAGAAGACCUCACUG: 0.838
GCUGGUAUCACAAGACCCUGAUACACAUUUCAGUGUUCCUAGCCCUUCUUGUCCUCCCUACCCUAAACUGCCCCCAACUCACAGGCUUCCCGUCCCCCAGCUGCCUGUCC: 1.79
UAGUUUGUAUCCCAGAGUAUACUGUGUUGAAAUAAGAAGAUGCAUAGCAGCUGAAUGCAUGCAUGACUUUGAGGGAAGUUAAGACUGGUUUUCUUUUCCCAUCUCUGCAC: 0.588
UGGCUCCUUAAGAAGCAAAAGUAGGUUAAAUUUUAUACUUCACUGACUAGGGUCUUCUCUCUCCCCUGUUCUGAAUGGAGUAAAAGUCUGAUGCCAAGACAAAUAUUGGG: 0.758
UUCUUUUUAGCUAUUCCUACAUACUUGUGUGUCAGCCCAUGUAUGUAGGUGUGACCGAUUUCAAGCAGCCCCUCCACCUGGCCUUUCUCUCUCUCUCUCUGUCUCUGUCU: 0.635
GACAAAACCCUGUCUCUACAAAAAUACAAAAAUUAGCUGGGUGUGGUGGGGCAUGCCUGUAGUCCUGGCUACUCAAGAGGCUGAGGUGGGAGGAUUGCUUGAGCGCAGGA: 2.15
AAGGCCAGAAGGGGCUUAUAAUGACUUCUCUUCUAGAAUUGUAAUACUAAAAAACUACUCGAGUAAAUAUCCUAACAAGUAUGAUUUUUCUUGGGAAAACUAAAAAUUGU: 0.566

Sample 3
Target: Histone acetyltransferase KAT6A, both winged helices, GST fusion (KAT6A, Homo sapiens, UniProt Q92794, residues 1-181)
Method: protein binding microarray
Molecule type: double-stranded DNA, one strand shown
Sample: in vitro
Concentration: not given
Notes: 8-mer, flanks averaged, mean of 2 arrays, mostly near background
Baseline: not given
Direction: higher = stronger binding
Endpoint: E-score
Construct (chain): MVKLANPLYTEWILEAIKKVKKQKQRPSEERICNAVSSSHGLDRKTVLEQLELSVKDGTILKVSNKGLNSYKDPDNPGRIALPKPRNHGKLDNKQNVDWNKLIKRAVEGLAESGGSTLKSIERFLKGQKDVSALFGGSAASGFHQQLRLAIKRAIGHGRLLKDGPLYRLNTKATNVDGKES
CGAGGGTA: -0.0773
GAGAATCC: -0.0145
CAGCAGAG: -0.119
CCCCCGTC: 0.0379
GAATTCTA: -0.0611
AAATGGCA: -0.214
AAATTCAA: -0.0939
GCTGCCCC: 0.0788
CTGGTTAA: -0.0643
CCGGATGC: 0.152
CCTTAGAG: -0.142
CAAAACGA: -0.0434
AGAAACAC: 0.0296
ATTAGCCA: -0.155
CATTACGC: 0.179
TCTTATCA: 0.00515
ATATTGCA: -0.14
AGCAGTAT: -0.171
AGCATTAT: -0.125
AGCAGGCC: 0.0305
GAAATAGC: 0.102
TGCCGAAA: 0.0745
AGACCATA: -0.103
ACCAGGTG: -0.116
CGTTATCA: 0.0495

Sample 4
Target: Interferon regulatory factor 5, full length, phosphomimetic (IRF5, Homo sapiens, UniProt Q13568-2, residues 1-514, K96S/S451D/S453D/S456D/S462D)
Method: protein-binding microarray
Molecule type: double-stranded DNA, one strand shown
Sample: in vitro
Concentration: 250 nM
Notes: 60-bp whole probe
Added: salmon DNA 0.4 mg/ml
Baseline: random background probes
Direction: higher = stronger binding
Endpoint: log fluorescence
All sequences stand within: GCCTAGCAC … GTCTTGATTCGCTTGACGCTGCTG
GACGGTTTCCGTATCCTGACGTGCTAG: 0.879 z-score
TTATGTCTCCTACTGCTTTAGTGCTAG: 0.254 z-score
GACGAACTGAGACTGTAGACGTGCTAG: -0.301 z-score
TTAGGACTGGGTATAGGTTAGTGCTAG: -0.465 z-score
TCAGCTCTGTGCTTTCCTACTGTGCTA: -0.0199 z-score
TTAGATTTCAGTTCCAATTAGTGCTAG: 2.17 z-score
CATGAATCAGGCATAGCATGGTGCTAG: -0.566 z-score
GACGATCTCAGACTGGAGATGTGCTAG: -0.043 z-score
GACGAAATGAGTTTCGAGACGTGCTAG: 6.05 z-score
GACGGTTACCTTTTCCTGACGTGCTAG: 0.51 z-score
GACGATTTCAGTTCCGAGTCGTGCTAG: 1.82 z-score
GACGCTATCGGGTTTCGAGACGTGCTA: 4.73 z-score
GACGGACTGGACATTCGGGACGTGCTA: -0.436 z-score
GACGGTCTCCTTATTCTGACGTGCTAG: 0.0451 z-score
TTAGGACTGCTCATCCTTTAGTGCTAG: -0.271 z-score
TTAGGTCTTCTTATCCTTTAGTGCTAG: 0.171 z-score
CACGGTTTCCTTATCCTGACGTGCTAG: 0.776 z-score
GACGATACCAGTCTCGAGACGTGCTAG: 0.523 z-score
GACGATCTCAGACTGGAGAAGTGCTAG: -0.464 z-score
AGGGCAGGGAGGGGGACAGCGTGCTAG: 1.25 z-score
TTAGGACTGGACACTGGTTTAGTGCTA: -0.492 z-score
ATCATTCTCACTGCAGCCTTGTGCTAG: 0.699 z-score
TTAGAACTGGGGTATCAATTAGTGCTA: 0.337 z-score
TTAGGACTGCTACTACTTTAGTGCTAG: -0.3 z-score
